{"data": "Experimental data collected from several papers", "mode": "agonist", "GLP1R": "Glucagon-like peptide 1 receptor (GLP1R, Homo sapiens, UniProt P43220)", "note": "Protocols differ between the studies behind these lines. pEC50: −log10 of the molar value.", "chain of UniProt P43220 (whole entry, looked up)": "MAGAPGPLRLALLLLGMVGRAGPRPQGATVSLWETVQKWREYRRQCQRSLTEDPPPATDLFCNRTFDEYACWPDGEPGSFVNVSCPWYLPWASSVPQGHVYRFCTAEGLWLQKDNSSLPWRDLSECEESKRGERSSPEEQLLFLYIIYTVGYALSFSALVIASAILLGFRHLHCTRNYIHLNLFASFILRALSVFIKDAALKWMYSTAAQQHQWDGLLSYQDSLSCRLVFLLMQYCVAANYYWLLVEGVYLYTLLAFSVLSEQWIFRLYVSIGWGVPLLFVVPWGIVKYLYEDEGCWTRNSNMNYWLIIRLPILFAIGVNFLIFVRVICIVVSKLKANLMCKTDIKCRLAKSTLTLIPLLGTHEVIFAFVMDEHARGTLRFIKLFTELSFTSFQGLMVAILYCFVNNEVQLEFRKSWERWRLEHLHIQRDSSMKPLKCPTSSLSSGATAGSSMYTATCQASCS"}
{"Compound": "CC(C)(C)C(c1ccccc1)n1cc(CNc2ccc(C(=O)NCCC(=O)O)cc2)nn1 (centres unmarked)", "target": "GLP1R", "cell line": "human cells", "pEC50": 5.33}
{"Compound": "CC[C@H](C)[C@H](NC(=O)[C@H](Cc1ccccc1)NC(=O)[C@H](CCC(=O)O)NC(=O)[C@H](CCCCN)NC(=O)[C@H](C)NC(=O)[C@H](C)NC(=O)[C@H](CCC(N)=O)NC(=O)CNC(=O)[C@H](CCC(=O)O)NC(=O)[C@H](CC(C)C)NC(=O)[C@H](Cc1ccc(O)cc1)NC(=O)[C@H](CO)NC(=O)[C@H](CO)NC(=O)[C@@H](NC(=O)[C@H](CC(=O)O)NC(=O)[C@H](CO)NC(=O)[C@@H](NC(=O)[C@H](Cc1ccccc1)NC(=O)[C@@H](NC(=O)CNC(=O)[C@H](CCC(=O)O)NC(=O)[C@H](C)NC(=O)[C@H](Cc1c[nH]cn1)NCC12CC3CC(CC(C3)C1)C2)[C@@H](C)O)[C@@H](C)O)C(C)C)C(=O)N[C@@H](C)C(=O)N[C@@H](Cc1c[nH]c2ccccc12)C(=O)N[C@@H](CC(C)C)C(=O)N[C@H](C(=O)N[C@@H](CCCCN)C(=O)NCC(=O)N[C@@H](CCCNC(=N)N)C(N)=O)C(C)C", "target": "GLP1R", "effect on": "reporter gene", "technique": "luciferase", "pEC50": 11.19}
{"Compound": "Cc1[nH]c2c(Cl)cc(Cl)cc2c1CCn1cc(CNc2ccc(C(=O)NCCC(=O)O)cc2)nn1", "target": "GLP1R", "cell line": "human cells", "pEC50": 6.21}
{"Compound": "CC[C@H](C)[C@H](NC(=O)[C@H](Cc1ccccc1)NC(=O)[C@H](CCC(=O)O)NC(=O)[C@H](CCCCN)NC(=O)[C@H](C)NC(=O)[C@H](C)NC(=O)[C@H](CCC(N)=O)NC(=O)[C@H](CCC(=O)O)NC(=O)[C@H](CC(=O)O)NC(=O)[C@H](CC(C)C)NC(=O)[C@H](Cc1ccc(O)cc1)NC(=O)[C@H](CCCCN)NC(=O)[C@H](CO)NC(=O)[C@H](Cc1ccc(O)cc1)NC(=O)[C@H](CC(=O)O)NC(=O)[C@H](CO)NC(=O)[C@@H](NC(=O)[C@H](Cc1ccccc1)NC(=O)[C@@H](NC(=O)CNC(=O)[C@H](CCC(N)=O)NC(=O)[C@H](CO)NC(=O)[C@@H](N)Cc1cnc[nH]1)[C@@H](C)O)[C@@H](C)O)C(=O)N[C@@H](C)C(=O)N[C@@H](Cc1c[nH]c2ccccc12)C(=O)N[C@@H](CC(C)C)C(=O)N[C@@H](CCSC)C(=O)N[C@@H](CC(N)=O)C(=O)N[C@H](C(N)=O)[C@@H](C)O", "target": "GLP1R", "effect on": "cAMP", "technique": "TR-FRET", "pEC50": 11.05}
{"Compound": "COc1cc(C2C(NC(=O)c3ccc(NC(=O)OC(C)(C)C)cc3)(C(=O)O)C(c3ccc(OC(=O)c4cccs4)c(OC)c3)C2(NC(=O)c2ccc(NC(=O)OC(C)(C)C)cc2)C(=O)O)ccc1OC(=O)c1cccs1 (centres unmarked)", "target": "Glucagon-like peptide 1 receptor, with β-arrestin 2 (GLP1R, Homo sapiens, UniProt P43220)", "effect on": "β-arrestin 2 recruitment", "technique": "BRET", "pEC50": 4.64}
{"Compound": "CC(C)C[C@H](NC(=O)CNC(=O)[C@H](CCC(N)=O)NC(=O)[C@H](CC(C)C)NC(=O)[C@H](CC(C)C)NC(=O)[C@H](CCCNC(=N)N)NC(=O)[C@H](CCC(N)=O)NC(=O)[C@H](CC(C)C)NC(=O)[C@H](CCCNC(=N)N)NC(=O)[C@H](C)NC(=O)CNC(=O)[C@H](CCC(=O)O)NC(=O)[C@H](CCCNC(=N)N)NC(=O)[C@H](CC(C)C)NC(=O)[C@H](CCCNC(=N)N)NC(=O)[C@H](CO)NC(=O)[C@H](CC(C)C)NC(=O)[C@H](CCC(=O)O)NC(=O)[C@H](CO)NC(=O)[C@@H](NC(=O)[C@H](Cc1ccccc1)NC(=O)[C@@H](NC(=O)CNC(=O)[C@H](CC(=O)O)NC(=O)[C@H](CO)NC(=O)[C@@H](N)Cc1c[nH]cn1)[C@@H](C)O)[C@@H](C)O)C(=O)N[C@H](C(N)=O)C(C)C", "target": "GLP1R", "effect on": "cAMP", "pEC50": 5.64}
{"Compound": "CCN[C@@H](Cc1c[nH]cn1)C(=O)N[C@@H](C)C(=O)N[C@@H](CCC(=O)O)C(=O)NCC(=O)N[C@H](C(=O)N[C@@H](Cc1ccccc1)C(=O)N[C@H](C(=O)N[C@@H](CO)C(=O)N[C@@H](CC(=O)O)C(=O)N[C@H](C(=O)N[C@@H](CO)C(=O)N[C@@H](CO)C(=O)N[C@@H](Cc1ccc(O)cc1)C(=O)N[C@@H](CC(C)C)C(=O)N[C@@H](CCC(=O)O)C(=O)NCC(=O)N[C@@H](CCC(N)=O)C(=O)N[C@@H](C)C(=O)N[C@@H](C)C(=O)N[C@@H](CCCCN)C(=O)N[C@@H](CCC(=O)O)C(=O)N[C@@H](Cc1ccccc1)C(=O)N[C@H](C(=O)N[C@@H](C)C(=O)N[C@@H](Cc1c[nH]c2ccccc12)C(=O)N[C@@H](CC(C)C)C(=O)N[C@H](C(=O)N[C@@H](CCCCN)C(=O)NCC(=O)N[C@@H](CCCNC(=N)N)C(N)=O)C(C)C)[C@@H](C)CC)C(C)C)[C@@H](C)O)[C@@H](C)O", "target": "GLP1R", "effect on": "reporter gene", "technique": "luciferase", "pEC50": 11.20}
{"Compound": "CC[C@H](C)[C@H](NC(=O)[C@@H](NC(=O)[C@H](CC(N)=O)NC(=O)[C@H](CC(=O)O)NC(=O)[C@H](CO)NC(=O)[C@H](CCCCN)NC(=O)[C@H](CCCCN)NC(=O)[C@H](CCC(=O)O)NC(=O)[C@H](CCCNC(=N)N)NC(=O)[C@H](CCCNC(=N)N)NC(=O)[C@H](C)NC(=O)[C@H](CC(C)C)NC(=O)[C@H](CC(C)C)NC(=O)[C@H](Cc1c[nH]c2ccccc12)NC(=O)[C@H](CCC(=O)O)NC(=O)[C@@H](NC(=O)[C@H](Cc1ccccc1)NC(=O)[C@H](CC(N)=O)NC(=O)[C@H](CCCCN)NC(=O)[C@H](CCCCN)NC(=O)[C@H](CC(C)C)NC(=O)[C@H](CCSC)NC(=O)[C@H](CC(N)=O)NC(=O)[C@H](CC(=O)O)NC(=O)[C@H](CCSC)NC(=O)[C@@H](NC(=O)[C@H](CCCNC(=N)N)NC(=O)[C@H](CO)NC(=O)[C@H](Cc1ccc(O)cc1)NC(=O)[C@H](CC(=O)O)NC(=O)[C@H](CO)NC(=O)[C@H](C)NC(=O)[C@H](CC(C)C)NC(=O)[C@@H](NC(=O)[C@H](C)NC(=O)[C@H](CCC(=O)O)NC(=O)[C@H](CO)NC(=O)[C@@H](N)Cc1ccc(O)cc1)[C@@H](C)O)[C@@H](C)O)C(C)C)C(C)C)C(=O)N[C@@H](CCC(=O)O)C(=O)N1CCC[C@H]1C(=O)N[C@@H](Cc1ccc(O)cc1)C(=O)O", "target": "GLP1R", "effect on": "reporter gene", "technique": "CRE-luciferase reporter", "cell line": "HEK-293T", "time": "12 h", "pEC50": "< 6.00"}
{"Compound": "CC(C)(Cn1cc(CNc2ccc(C(=O)NCCC(=O)O)cc2)nn1)c1c[nH]c2ccccc12", "target": "GLP1R", "cell line": "human cells", "pEC50": 5.75}
{"Compound": "CC[C@H](C)[C@H](NC(=O)[C@H](Cc1ccccc1)NC(=O)[C@H](CCC(=O)O)NC(=O)[C@H](CCCCN)NC(=O)[C@H](C)NC(=O)[C@H](C)NC(=O)[C@H](CCC(N)=O)NC(=O)CNC(=O)[C@H](CCC(=O)O)NC(=O)[C@H](CC(C)C)NC(=O)[C@H](Cc1ccc(O)cc1)NC(=O)[C@H](CO)NC(=O)[C@H](CO)NC(=O)[C@@H](NC(=O)[C@H](CC(=O)O)NC(=O)[C@H](CO)NC(=O)[C@@H](NC(=O)[C@H](Cc1ccccc1)NC(=O)[C@@H](NC(=O)CNC(=O)[C@H](CCC(=O)O)NC(=O)[C@H](C)NC(=O)[C@H](Cc1c[nH]cn1)NCc1ccccc1)[C@@H](C)O)[C@@H](C)O)C(C)C)C(=O)N[C@@H](C)C(=O)N[C@@H](Cc1c[nH]c2ccccc12)C(=O)N[C@@H](CC(C)C)C(=O)N[C@H](C(=O)N[C@@H](CCCCN)C(=O)NCC(=O)N[C@@H](CCCNC(=N)N)C(N)=O)C(C)C", "target": "GLP1R", "effect on": "reporter gene", "technique": "luciferase", "pEC50": 11.40}
{"Compound": "CC(C)C[C@H](NC(=O)[C@H](Cc1ccccc1)NC(=O)[C@H](CCCNC(=N)N)NC(=O)[C@H](CCC(N)=O)NC(=O)[C@H](CC(C)C)NC(=O)C(C)(C)NC(=O)[C@H](C)NC(=O)[C@H](CCC(=O)O)NC(=O)[C@H](CCC(=O)O)NC(=O)[C@H](CCCCNC(=O)COCCOCCNC(=O)COCCOCCNC(=O)CC[C@H](NC(=O)CCCCCCCCCCCCCCCCCCC(=O)O)C(=O)O)NC(=O)[C@H](CC(C)C)NC(=O)[C@H](Cc1ccc(O)cc1)NC(=O)[C@H](CO)NC(=O)[C@@H](NC(=O)[C@H](CC(=O)O)NC(=O)[C@H](CO)NC(=O)[C@@H](NC(=O)[C@H](Cc1ccccc1)NC(=O)[C@@H](NC(=O)CNC(=O)[C@H](CCC(=O)O)NC(=O)C(C)(C)NC(=O)[C@@H](N)Cc1c[nH]cn1)[C@@H](C)O)[C@@H](C)O)C(C)C)C(=O)N[C@@H](CCC(=O)O)C(=O)N[C@@H](Cc1c[nH]cn1)C(=O)N[C@@H](CC(C)C)C(=O)N[C@H](C(N)=O)C(C)C", "target": "GLP1R", "effect on": "cAMP", "pEC50": 10.74}
{"note": "A few entries again:"}
{"Compound": "CC(C)C[C@H](NC(=O)CNC(=O)[C@H](CCC(N)=O)NC(=O)[C@H](CC(C)C)NC(=O)[C@H](CC(C)C)NC(=O)[C@H](CCCNC(=N)N)NC(=O)[C@H](CCC(N)=O)NC(=O)[C@H](CC(C)C)NC(=O)[C@H](CCCNC(=N)N)NC(=O)[C@H](C)NC(=O)CNC(=O)[C@H](CCC(=O)O)NC(=O)[C@H](CCCNC(=N)N)NC(=O)[C@H](CC(C)C)NC(=O)[C@H](CCCNC(=N)N)NC(=O)[C@H](CO)NC(=O)[C@H](CC(C)C)NC(=O)[C@H](CCC(=O)O)NC(=O)[C@H](CO)NC(=O)[C@@H](NC(=O)[C@H](Cc1ccccc1)NC(=O)[C@@H](NC(=O)CNC(=O)[C@H](CC(=O)O)NC(=O)[C@H](CO)NC(=O)[C@@H](N)Cc1c[nH]cn1)[C@@H](C)O)[C@@H](C)O)C(=O)N[C@H](C(N)=O)C(C)C", "target": "GLP1R", "effect on": "cAMP", "pEC50": 5.64}
